# Measurements from different studies.
SMILES,test,system,setting,Vz/F
Cc1cc(C)c(CNC(=O)c2cc(Cl)c3c(c2C)O[C@@](C)([C@H]2CC[C@H](N(C)C)CC2)O3)c(=O)[nH]1,mean,"healthy male humans, plasma","oral, 25 mg, day 11, with: itraconazole",449 L
C[C@H](Oc1ccc(Br)cc1-c1ccon1)C(=O)O,,"human, plasma","oral, 400 mg twice daily, day 10, multiple ascending dose",31.6 L
Cn1cc(-c2cn3nccc3c(-c3cnn([C@]4(CC#N)C[C@@H](C#N)C4)c3)n2)cn1,,healthy human fasted,1600 mg single dose,2880 L
CN1C(=O)[C@@H](NC(=O)c2nnc(Cc3ccccc3)[nH]2)COc2cccnc21,,"healthy human, fasted, plasma","oral, 100 mg single dose, geometric mean",50.9 L
Fc1ccc([C@@H]2CCNC[C@H]2COc2ccc3c(c2)OCO3)cc1,,"human, CYP2D6 normal metabolizers","oral, 20 mg, steady state, geometric mean",1620 L
C[C@H]1O[C@@H](O[C@H]2[C@@H](O)C[C@H](O[C@H]3[C@@H](O)C[C@H](O[C@H]4CC[C@@]5(C)[C@H](CC[C@@H]6[C@@H]5C[C@@H](O)[C@]5(C)[C@@H](C7=CC(=O)OC7)CC[C@]65O)C4)O[C@@H]3C)O[C@@H]2C)C[C@H](O)[C@@H]1O,,human,"oral, substrate with omaveloxolone, with: omaveloxolone once daily",759 L
[H]/N=C(/N)c1ccc(NCc2nc3cc(C(=O)N(CCC(=O)O)c4ccccn4)ccc3n2C)cc1,,"healthy human subjects, plasma","oral, 150 mg, dabigatran etexilate, arithmetic mean, with: fruquintinib 5 mg",2550 L
C[C@@H](c1ccc2nccn2c1)n1nnc2ncc(-c3cnn(C)c3)nc21,,"human, plasma","oral, 300 mg, cycle 1 day 1, single dose",138 L
CC(C)c1nc(N(C)S(C)(=O)=O)nc(-c2ccc(F)cc2)c1/C=C/[C@@H](O)C[C@@H](O)CC(=O)O,,human,"oral, 10 mg, with: vepdegestrant 200 mg",7490 L
CC1(C)CC[C@]2(NC(=O)C(C)(F)F)CC[C@]3(C)[C@H](C(=O)C=C4[C@@]5(C)C=C(C#N)C(=O)C(C)(C)[C@@H]5CC[C@]43C)[C@@H]2C1,,"human, plasma","oral, 150 mg single dose, alone, geometric mean",10000 L
Cc1nsc(-c2nnc3n2CCN(C(=O)c2ccc(F)cc2)[C@@H]3C)n1,,"human, plasma","oral, assumed 70 kg body weight",~2.7 L/kg
CNC(=O)n1ccc2cc(Oc3ccnc(NC(=O)c4ccc(C5CCN(CCO)CC5)cc4)c3)c(OCCOC)cc21,,"healthy human, plasma","oral, 35 mg, geometric mean, with: rabeprazole 20 mg",12500 L
C#C[C@]1(CO)O[C@@H](n2cnc3c(N)nc(F)nc32)C[C@@H]1O,,"human, plasma","oral, 200 mg, single dose, geometric mean",2410 L
CN(C)C(=O)c1cc2cnc(Nc3ccc(N4CCNCC4)cn3)nc2n1C1CCCC1,,"human, normal renal function, plasma","oral, 400 mg, single dose, geometric mean",5070 L
CC(C)c1nc(N(C)S(C)(=O)=O)nc(-c2ccc(F)cc2)c1/C=C/[C@@H](O)C[C@@H](O)CC(=O)O,,"healthy human subjects, plasma","oral, 10 mg, arithmetic mean, with: none",5920 L
NC(=S)NN=Cc1ncccc1N,,"human, plasma","intravenous, 50 mg, geometric mean",114 L

# Repeated from above:
SMILES,test,system,setting,Vz/F
CN1C(=O)[C@@H](NC(=O)c2nnc(Cc3ccccc3)[nH]2)COc2cccnc21,,"healthy human, fasted, plasma","oral, 100 mg single dose, geometric mean",50.9 L
Fc1ccc([C@@H]2CCNC[C@H]2COc2ccc3c(c2)OCO3)cc1,,"human, CYP2D6 normal metabolizers","oral, 20 mg, steady state, geometric mean",1620 L
